# Measured values pooled from the literature.
# Protocols differ between the studies behind these lines. ± gives the spread as reported.
SMILES,target or system,test,test system,setting,how to read,endpoint,value
CC(C)(O)c1coc(S(=O)(=O)NC(=O)c2cc3ccccc3n2Cc2ccc(Br)c3ccccc23)c1,,,"male mouse, acute hyperuricaemia model, serum","oral, 2 mg/kg, 4 h",,serum uric acid,318 ± 77.5 µM
NC(=O)c1cnc2[nH]ccc2c1N[C@@H]1[C@@H]2CC3C[C@H]1C[C@@](O)(C3)C2,,"CD8+ naive T cells, flow cytometry","Japanese humans, peripheral blood",200 mg single dose,reference: baseline,percent change,-0.97%
Cc1ccc(S(=O)(=O)NC(=O)c2cc3ccccc3n2Cc2ccc(C3CC3)c3ccccc23)cc1,,,"mouse, acute hyperuricaemia model, serum","oral, 2 mg/kg",reference: vehicle model,serum uric acid decrease,72.9%
CCCCC1(CCCC)CN(c2ccccc2)c2cc(SC)c(OCC(=O)N[C@@H](C(=O)NCC(=O)O)c3ccccc3)cc2S(=O)(=O)C1,,refers to: 7α-hydroxy-4-cholesten-3-one,"human, plasma","10 mg once daily, day 5",,plasma C4,57.8 ng/mL
[Cl-].[Cl-].[Pt+2].[Ru+2].c1ccc(-c2nccnc2-c2ccccn2)nc1.c1cnc2c(c1)ccc1cccnc12.c1cnc2c(c1)ccc1cccnc12,,,,"concentration not given, first substitution step, together with: thiourea",,activation enthalpy,7.89 ± 0.478 kcal/mol
COc1ccc(Cn2ccc3ccc(C(=O)NO)cc32)cc1,OCI-Ly1,,,"0.1 µM, 120 h",,viability,118%
CC(C)n1c(C2CCNCC2)nc2c([N+](=O)[O-])c(Br)c(Br)cc21,,refers to: blasts,"AML patients IDH mutated, bone marrow","dose not given, all doses",,minimum change from baseline,-99%
Cc1cc(=O)oc2cc(NC(=O)CCCCCCC(=O)NO)ccc12,OCI-Ly1,,,"0.1 µM, 120 h",,viability,108%
CC(C)NCC(O)c1ccc(O)c(O)c1 (centres unmarked),,,"ventricular cardiomyocytes, C57BL/6 mouse","dose not given, 0.316 s",,sarcomere length,1.72 µm
CC(=O)NCC(=O)NCC(=O)N[C@H](C(=O)N[C@@H](Cc1ccc(O)cc1)C(=O)N[C@@H](CO)C(=O)N[C@H]1CSSC[C@@H](C(=O)N[C@@H](CCCNC(=N)N)C(=O)N2CCC[C@H]2C(=O)N[C@@H](CCC(N)=O)C(=O)N[C@@H](CCCNC(=N)N)C(=O)NCC(=O)NCCC(=O)N[C@@H](CCCCNC(=O)CN(CC(=O)NCCCC[C@H](NC(=O)CCNC(=O)CNC(=O)[C@H](CCCNC(=N)N)NC(=O)[C@H](CCC(N)=O)NC(=O)[C@@H]2CCCN2C(=O)[C@H](CCCNC(=N)N)NC(=O)[C@@H]2CSSC[C@H](NC(=O)[C@H](CO)NC(=O)[C@H](Cc3ccc(O)cc3)NC(=O)[C@@H](NC(=O)CNC(=O)CNC(C)=O)[C@@H](C)O)C(=O)N[C@@H](Cc3c[nH]cn3)C(=O)N[C@@H](Cc3ccccc3)C(=O)NCC(=O)N[C@@H](C)C(=O)N[C@@H](CC(C)C)C(=O)N[C@@H]([C@@H](C)O)C(=O)N[C@@H](Cc3c[nH]c4ccccc34)C(=O)N[C@@H](C(C)C)C(=O)N2)C(N)=O)C(=O)CCN)C(N)=O)NC(=O)[C@H](C(C)C)NC(=O)[C@H](Cc2c[nH]c3ccccc23)NC(=O)[C@H]([C@@H](C)O)NC(=O)[C@H](CC(C)C)NC(=O)[C@H](C)NC(=O)CNC(=O)[C@H](Cc2ccccc2)NC(=O)[C@H](Cc2c[nH]cn2)NC1=O)[C@@H](C)O,,,healthy BALB/c mice,"subcutaneous, 0.08 mg/kg, 14 d, single dose",,haemoglobin,166 g/L
Cn1cc(Nc2nc(N)nc(-c3cccc(-n4ccc5cc(C6CC6)cc(F)c5c4=O)c3CO)n2)cn1,,"CD63 upregulation, anti-IgE-induced","human, multiple ascending dose, whole blood basophils ex vivo","50 mg twice daily, day 14, 12 h",,inhibition,70.4%
C[C@H]1C[C@H]2CSC(N)=N[C@@]2(c2nc(NC(=O)c3ccc(OC(F)F)cn3)cs2)CO1,,refers to: total Aβ,"healthy adults, plasma","275 mg once daily, day 7",reference: placebo,percent change from baseline,-67.3%
CCOc1cc(/C=C2\CN(C(C)=O)CC3=C2OC(N)=C(C#N)C3c2ccc(O)c(OCC)c2)ccc1O (centres unmarked),,,"rat, DMBA-induced mammary tumour, mammary tumour","dose not given, day 0",,tumour volume,0.24 ± 0.01 cm3
O=C(NS(=O)(=O)c1ccccc1)c1cc2ccccc2n1Cc1ccc(C2CC2)c2ccccc12,,,"male mouse, acute hyperuricaemia model, serum","oral, 2 mg/kg, 4 h",,serum uric acid,180 ± 4 µM
O=C1Nc2cc3[nH]nc(-c4ccncc4)c3cc2CN1Cc1ccccc1,,RECIST v1.1,"human, relapsed or refractory advanced solid tumours","intravenous, 4.8 mg/kg",,"progressive disease, best response",33%
O=C(O)CNC(=O)Cc1ccccc1,,,"ventricular cardiomyocytes, C57BL/6 mouse","dose not given, 0.552 s",,sarcomere length,1.62 µm
COc1c(Cl)cccc1Nc1c(-c2ccncc2OC[C@@H]2COCCO2)[nH]c2c1C(=O)NCC2,,,human,"oral, 20 mg twice daily, 54 weeks",,tumour shrinkage,78%
Cc1n[nH]c2ccc(-c3cc(OC[C@@H](N)Cc4ccccc4)cnc3-c3ccoc3)cc12,,"kinase binding, competitor, MIB/MS competition, refers to: RIO2",Candida albicans cell lysate,1 µM,reference: DMSO,log2 fold change,-0.263
CCN(Cc1nc2c(N)nc3cc(-c4cc[nH]n4)ccc3c2[nH]1)C(C)=O,,,human,"intratumoural, 2000 µg",,duration of response,22.9 months
CN(C)C(=O)Oc1cccc([N+](C)(C)C)c1,,neuromuscular block reversal,rat,"dose not given, 2.5 (unit not given), together with: cisatracurium",reference: T1 twitch,train-of-four ratio,4.15

# A few entries again:
SMILES,target or system,test,test system,setting,how to read,endpoint,value
O=C1Nc2cc3[nH]nc(-c4ccncc4)c3cc2CN1Cc1ccccc1,,RECIST v1.1,"human, relapsed or refractory advanced solid tumours","intravenous, 4.8 mg/kg",,"progressive disease, best response",33%
O=C(O)CNC(=O)Cc1ccccc1,,,"ventricular cardiomyocytes, C57BL/6 mouse","dose not given, 0.552 s",,sarcomere length,1.62 µm
COc1c(Cl)cccc1Nc1c(-c2ccncc2OC[C@@H]2COCCO2)[nH]c2c1C(=O)NCC2,,,human,"oral, 20 mg twice daily, 54 weeks",,tumour shrinkage,78%
